Published values from different studies.
A part holds a random share of what one study measured. Substitutions count along the parent as printed.

Set 1
Target: CCND1, cyclin fold, Cln2 fusion (human)
Technique: yeast growth competition, sequencing
Medium: yeast
Notes: strong parent motif
Baseline: not given
Direction: higher = stronger binding
Endpoint: normalised enrichment score
Parent: CDKN1A docking peptide (human); SKACRRLFGPVDS; partner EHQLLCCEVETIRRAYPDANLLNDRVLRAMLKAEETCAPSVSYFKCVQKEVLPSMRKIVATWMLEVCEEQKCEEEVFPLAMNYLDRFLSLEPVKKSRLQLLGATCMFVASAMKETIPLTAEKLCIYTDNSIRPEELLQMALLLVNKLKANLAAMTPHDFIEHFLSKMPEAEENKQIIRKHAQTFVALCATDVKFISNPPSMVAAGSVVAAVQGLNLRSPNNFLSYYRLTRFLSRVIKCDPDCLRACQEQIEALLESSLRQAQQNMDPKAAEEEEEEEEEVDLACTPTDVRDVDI
G9L: 2.33
P10M: 1.05
F8I: 0.213
V11A: 3.72
V11D: 5.78
D12Y: 1.39
R5E: 0.141
R6A: 1.61
F8Y: -0.00945
C4H: 0.451
G9I: 2.38
L7T: 0.2
A3K: 0.488

Set 2
Target: MAFF, bZIP domain (human)
Technique: DHFR protein complementation
Medium: yeast
Notes: single substitutions, most at no-binding floor
Baseline: wild-type JUN-FOS pair
Direction: higher = stronger binding
Endpoint: binding fitness
Parent: JUN, bZIP domain (human); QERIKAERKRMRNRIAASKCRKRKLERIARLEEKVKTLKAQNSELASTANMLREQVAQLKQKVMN; partner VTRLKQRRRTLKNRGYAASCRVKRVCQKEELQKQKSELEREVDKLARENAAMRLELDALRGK
S47L: -1.41 natural log
Q41D: -1.53 natural log
E33N: -1.55 natural log
E32D: -1.46 natural log
A49N: -1.35 natural log
K34W: -1.48 natural log
R53G: -1.33 natural log
V35E: -1.44 natural log
R53M: -1.53 natural log

Set 3
Target: Histone acetyltransferase KAT6A, winged helix 1, GST fusion (KAT6A, Homo sapiens, UniProt Q92794, residues 1-85)
Technique: protein binding microarray
Form: double-stranded DNA, one strand shown
Medium: in vitro
Concentration: not given
Notes: 8-mer, flanks averaged, mean of 2 arrays, mostly near background
Baseline: not given
Direction: higher = stronger binding
Endpoint: E-score
Target sequence (chain): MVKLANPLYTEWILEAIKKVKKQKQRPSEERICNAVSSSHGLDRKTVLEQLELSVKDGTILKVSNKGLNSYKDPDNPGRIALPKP
GCCAAGAC: -0.183
GCTGTAGA: -0.0506
CGAGGCAC: -0.0429
GAGCAAGC: -0.0682
CGTCAACA: 0.169
GCTCCGCC: 0.285
CCCGTTAG: 0.347
AGGCAGGG: -0.255
CCGACCGA: 0.292
CCAGAATC: -0.165
GGATCTGA: -0.109
AGTCAGTA: -0.0328
GGCAAGGA: -0.0855
CCTAATGC: -0.049
CTAATTCA: -0.00976
ACTAAAAA: 0.00711
CATGGTCC: -0.0465
ACATTCAC: -0.148
CAATGGCC: -0.0334
GATCTGCA: -0.236
CACCATAA: 0.00808
TCCCTGCA: -0.0847

Set 4
Target: Interferon regulatory factor 5, full length, phosphomimetic (IRF5, Homo sapiens, UniProt Q13568-2, residues 1-514, K96S/S451D/S453D/S456D/S462D)
Technique: protein-binding microarray
Form: double-stranded DNA, one strand shown
Medium: in vitro
Concentration: 250 nM
Notes: 60-bp whole probe
Added: salmon DNA 0.4 mg/ml
Baseline: random background probes
Direction: higher = stronger binding
Endpoint: log fluorescence
All sequences stand within: GCCTAGCAC … GTCTTGATTCGCTTGACGCTGCTG
TTAGGACTGCTTTTCCATTAGTGCTAG: -0.116 z-score
TTAGGTACCGGTTTCGGTTAGTGCTAG: 8.77 z-score
TTAGGTTTGGGGACTGGGTTAGTGCTA: -0.193 z-score
GACGATATCGGGTATCGAGCCGTGCTA: 2.26 z-score
GACGATTTCGGTCTCGGGACGTGCTAG: 6.48 z-score
TTGTTTTACAATTTGCTTTAGTGCTAG: 1.09 z-score
GACGGACTGGCTTTCGGGACGTGCTAG: 2.72 z-score
TCATCTCCCCCATCTTGTACTGTGCTA: -0.0905 z-score
CTAGTTTTTACTTTCTGAATGTGCTAG: 3.68 z-score
TTAGAACTGGGGAATGGATTAGTGCTA: -0.22 z-score
GACGGTTTCTGTTCCGGGACGTGCTAG: 3.63 z-score
GACGGACTGGACTATTGGGACGTGCTA: -0.38 z-score
CAGCGCGCAGCTGCCAGAACGTGCTAG: -0.901 z-score
TGAAATTTTAGTAACACAGAGTGCTAG: 1.01 z-score
GGATGACTCCCTCTCTGGCCGTGCTAG: -0.376 z-score
GACGATTTCTGTTTCGAGACGTGCTAG: 5.74 z-score
TTAAGACTGGGGTTTCGGTTAGTGCTA: 7.37 z-score
TTAGGTTTCCTTTTGCTTTAGTGCTAG: 1.78 z-score
TTAGGATTGGGGTATCGGTTAGTGCTA: 2.62 z-score
ATTGGTTGAACATGAACTTCGTGCTAG: 0.108 z-score
GACGATAGCAGACTGGAGACGTGCTAG: 0.495 z-score
TCACCTTGATGTCTGGGACTGTGCTAG: -0.305 z-score

Set 5
Target: ABI1, truncated, D143A, DHFR fusion (Arabidopsis thaliana)
Technique: DHFR PCA, deep sequencing
Medium: yeast
Notes: methotrexate growth selection, single substitutions
Added: (+)-ABA 0 µM
Baseline: wild-type fitted maximum
Direction: higher = stronger binding
Endpoint: relative binding score
Parent: PYL1, truncated, DHFR fusion (Arabidopsis thaliana); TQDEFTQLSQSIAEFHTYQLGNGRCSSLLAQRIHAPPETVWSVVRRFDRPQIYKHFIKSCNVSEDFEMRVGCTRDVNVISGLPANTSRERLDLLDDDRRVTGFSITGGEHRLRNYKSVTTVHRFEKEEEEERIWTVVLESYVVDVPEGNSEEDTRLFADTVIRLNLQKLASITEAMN
D95K: -7.33%
C60M: -2.42%
R74A: 2.43%
G21S: 29.7%
G23K: 9.4%
I105S: 1.64%
L138Q: -5.13%
E152S: 6.68%
L164G: 9.64%
I12P: 1.62%
D144N: 0.328%
V136L: 15.4%
T17L: -0.975%
V70G: -1.15%
R69L: 1.77%
G23I: 3.75%
L93A: 1.34%

Set 6
Target: UBE2V2 UBC core domain (UniProt Q15819)
Technique: yeast two-hybrid
Medium: yeast
Notes: mostly zero background
Baseline: not given
Direction: higher = stronger interaction
Endpoint: lacZ reporter activity
B1: TRIM22 RING domain (UniProt Q8IYM9); chain KEVKMSPQEGQKRDVCEHHGKKLQIFCKEDGKVICWVCELSQEHQGHQTFRINEVVKECQEK
B2: RNF181 RING domain (UniProt Q9P0P0); chain VIRGSQAELKCPVCLLEFEEEETAIEMPCHHLFHSSCILPWLSKTNSCPLCRYELPTDDDTY
B3: ZNRF3 RING domain (UniProt Q9ULT6); chain DTLSSSSTSDCAICLEKYIDGEELRVIPCTHRFHRKCVDPWLLQHHTCPHCRHNIIEQKGNP
B4: Ltn1 RING domain (UniProt Q6A009); chain VDKRFEGVEDCMICFSVIHGFNYSLPKKACRTCKKKFHSACLYKWFTSSNKSTCPLCRETFF
Construct (chain): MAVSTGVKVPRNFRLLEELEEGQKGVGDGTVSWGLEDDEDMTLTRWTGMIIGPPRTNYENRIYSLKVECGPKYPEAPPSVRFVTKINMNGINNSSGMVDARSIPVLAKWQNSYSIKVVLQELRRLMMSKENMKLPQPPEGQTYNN
B1 (TRIM22 RING domain): 0
B2 (RNF181 RING domain): 0
KLWDINAHITCRLCSGYLIDATTVTECLHTFCRSCLVKYLEENNTCPTCRIVIHQSHPLQ (PCGF3 RING domain (UniProt Q3KNV8)): 0
NTAPSLTVPECAICLQTCVHPVSLPCKHVFCYLCVKGASWLGKRCALCRQEIPEDFLDK (RNF146 RING domain (UniProt Q9NTX7)): 0
B3 (ZNRF3 RING domain): 0
B4 (Ltn1 RING domain): 0
ALDRLEKLLRCSRCTNILREPVCLGGCEHIFCSNCVSDCIGTGCPVCYTPAWIQDLKI (BARD1 RING domain (UniProt Q99728)): 0

Set 7
Target: Sal-like protein 4, full length isoform B (SALL4, Homo sapiens, UniProt Q9UJQ4-2, residues 1-616)
Technique: universal PBM
Form: double-stranded DNA, one strand shown
Medium: in vitro
Concentration: not given
Notes: 8-mer, flanks averaged, mean of replicates
Direction: higher = stronger binding
Endpoint: E-score
ACTCCGTC: -0.0886
TACTACAA: 0.326
GGTACGAC: -0.253
AATAACAT: 0.361
CTAGAGAA: 0.00015
ACAATACC: 0.212
CAGGCCCA: -0.323
ACCTCGAA: -0.0273
ACAAGTCA: 0.0509
CCTTGTCC: -0.204
CTCTAGTA: 0.168
AATTTCGA: 0.196
ACCGGCCA: -0.396
CAGATTTC: -0.00164
CCCGGAAG: -0.323
CGGTGAGC: -0.28
AGGAGTGG: -0.087
ATGACCTA: 0.156
TACAAAAA: 0.364
AAGCGACA: -0.111
GTCATTAA: 0.188
CCTTTTAG: -0.0624
CAGCTAGC: -0.26
CCCGGGAA: -0.274
CGCTCGCC: -0.311

Some of these lines once more (set 2):
S47L: -1.41 natural log
Q41D: -1.53 natural log
E33N: -1.55 natural log
E32D: -1.46 natural log
A49N: -1.35 natural log
K34W: -1.48 natural log
R53G: -1.33 natural log
V35E: -1.44 natural log
R53M: -1.53 natural log
